Results of several laboratories.
Every numbered part comes from another study and shows a few of its results, in no order. Values joined by “and” are separate records of one study, mostly repeats; a detail may differ.
UniProt P49760, sequence (whole entry, looked up): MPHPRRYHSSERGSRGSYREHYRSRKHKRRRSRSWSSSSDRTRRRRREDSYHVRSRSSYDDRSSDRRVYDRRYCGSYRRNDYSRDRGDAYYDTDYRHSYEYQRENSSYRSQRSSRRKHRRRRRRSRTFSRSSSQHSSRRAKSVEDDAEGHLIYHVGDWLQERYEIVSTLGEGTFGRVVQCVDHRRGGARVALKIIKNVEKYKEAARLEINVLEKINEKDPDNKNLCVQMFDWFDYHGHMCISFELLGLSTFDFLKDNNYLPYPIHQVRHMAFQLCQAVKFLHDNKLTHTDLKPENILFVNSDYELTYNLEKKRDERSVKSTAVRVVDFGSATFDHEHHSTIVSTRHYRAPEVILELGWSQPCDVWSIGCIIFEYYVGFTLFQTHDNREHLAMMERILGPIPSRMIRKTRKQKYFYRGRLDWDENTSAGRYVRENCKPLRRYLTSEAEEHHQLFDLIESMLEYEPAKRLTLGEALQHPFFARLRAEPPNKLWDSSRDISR
UniProt Q06418, sequence (whole entry, looked up): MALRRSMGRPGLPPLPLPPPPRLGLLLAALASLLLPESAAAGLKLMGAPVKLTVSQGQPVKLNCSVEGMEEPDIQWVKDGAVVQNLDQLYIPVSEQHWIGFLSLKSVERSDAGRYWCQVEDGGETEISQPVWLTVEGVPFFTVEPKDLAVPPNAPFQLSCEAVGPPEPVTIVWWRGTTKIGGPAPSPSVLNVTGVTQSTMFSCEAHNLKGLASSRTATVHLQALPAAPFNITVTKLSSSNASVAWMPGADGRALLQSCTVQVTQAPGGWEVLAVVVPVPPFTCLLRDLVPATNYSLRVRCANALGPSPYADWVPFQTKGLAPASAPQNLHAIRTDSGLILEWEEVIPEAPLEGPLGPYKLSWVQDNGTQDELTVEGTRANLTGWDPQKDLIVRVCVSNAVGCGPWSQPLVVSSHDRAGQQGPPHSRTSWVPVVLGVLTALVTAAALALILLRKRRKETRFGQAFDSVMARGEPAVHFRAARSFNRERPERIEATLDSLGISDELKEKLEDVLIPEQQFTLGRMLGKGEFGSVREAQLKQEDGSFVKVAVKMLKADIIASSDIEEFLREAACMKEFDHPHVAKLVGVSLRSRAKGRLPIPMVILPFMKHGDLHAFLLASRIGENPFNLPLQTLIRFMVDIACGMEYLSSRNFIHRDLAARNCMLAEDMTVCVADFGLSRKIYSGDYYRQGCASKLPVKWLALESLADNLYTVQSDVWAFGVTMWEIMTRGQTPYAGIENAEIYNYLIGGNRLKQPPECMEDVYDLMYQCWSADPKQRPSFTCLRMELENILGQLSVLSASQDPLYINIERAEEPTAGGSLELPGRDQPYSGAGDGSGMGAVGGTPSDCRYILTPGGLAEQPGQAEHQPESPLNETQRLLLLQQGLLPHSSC
UniProt P29317, sequence (whole entry, looked up): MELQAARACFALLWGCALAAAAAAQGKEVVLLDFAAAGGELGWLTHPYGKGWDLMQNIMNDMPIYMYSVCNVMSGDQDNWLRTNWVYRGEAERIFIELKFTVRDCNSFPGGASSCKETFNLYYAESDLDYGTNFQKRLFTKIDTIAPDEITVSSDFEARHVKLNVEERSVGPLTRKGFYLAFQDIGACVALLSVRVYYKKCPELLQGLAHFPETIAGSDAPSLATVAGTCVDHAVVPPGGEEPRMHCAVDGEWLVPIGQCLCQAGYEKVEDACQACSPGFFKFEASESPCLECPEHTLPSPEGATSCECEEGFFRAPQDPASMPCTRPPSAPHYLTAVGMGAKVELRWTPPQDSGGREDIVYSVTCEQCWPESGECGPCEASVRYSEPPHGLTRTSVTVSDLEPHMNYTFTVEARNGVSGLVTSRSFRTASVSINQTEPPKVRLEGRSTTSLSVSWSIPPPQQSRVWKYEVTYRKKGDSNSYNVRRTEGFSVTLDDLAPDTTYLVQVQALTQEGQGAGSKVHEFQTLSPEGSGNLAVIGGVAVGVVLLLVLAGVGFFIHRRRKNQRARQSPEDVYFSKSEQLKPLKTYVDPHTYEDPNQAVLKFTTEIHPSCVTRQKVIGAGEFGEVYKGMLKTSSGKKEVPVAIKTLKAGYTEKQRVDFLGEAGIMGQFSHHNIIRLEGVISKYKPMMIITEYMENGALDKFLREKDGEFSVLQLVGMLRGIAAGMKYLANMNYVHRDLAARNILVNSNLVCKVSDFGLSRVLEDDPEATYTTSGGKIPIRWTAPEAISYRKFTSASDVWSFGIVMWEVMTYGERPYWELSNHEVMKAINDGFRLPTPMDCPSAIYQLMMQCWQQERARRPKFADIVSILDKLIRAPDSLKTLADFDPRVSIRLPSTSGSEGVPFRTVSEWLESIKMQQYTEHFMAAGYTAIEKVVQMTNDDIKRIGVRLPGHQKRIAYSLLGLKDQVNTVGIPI

Study 1
SMILES: Cc1nc(Nc2ncc(C(=O)Nc3c(C)cccc3Cl)s2)cc(N2CCN(CCO)CC2)n1
Action: inhibitor
target	conditions	inhibition
Tyrosine-protein kinase SYK (SYK, Homo sapiens, UniProt P43405)	10 µM	91%
Non-receptor tyrosine-protein kinase TYK2, JH1 domain (TYK2, Homo sapiens, UniProt P29597)	10 µM	98%
Dual specificity protein kinase CLK2 (CLK2, Homo sapiens, UniProt P49760)	10 µM	< 50%
Aurora kinase B (AURKB, Homo sapiens, UniProt Q96GD4)	1 µM	< 50%
Cyclin-dependent kinase 17 (CDK17, Homo sapiens, UniProt Q00537)	10 µM	< 50%
5'-AMP-activated protein kinase catalytic subunit alpha-2 (PRKAA2, Homo sapiens, UniProt P54646)	10 µM	< 50%
Activin receptor type-1B (ACVR1B, Homo sapiens, UniProt P36896)	1 µM	< 50%
Tyrosine-protein kinase receptor UFO (AXL, Homo sapiens, UniProt P30530)	1 µM	< 50%
Tyrosine-protein kinase JAK2 (JAK2, Homo sapiens, UniProt O60674)	1 µM	71%
Mitogen-activated protein kinase 3 (MAPK3, Homo sapiens, UniProt P27361)	1 µM	< 50%
Tyrosine-protein kinase Srms (SRMS, Homo sapiens, UniProt Q9H3Y6)	10 µM	100%
Serine/threonine-protein kinase 32C (STK32C, Homo sapiens, UniProt Q86UX6)	10 µM	< 50%
Serine/threonine-protein kinase 17A (STK17A, Homo sapiens, UniProt Q9UEE5)	10 µM	< 50%
Ribosomal protein S6 kinase alpha-4, N-terminal kinase domain (RPS6KA4, Homo sapiens, UniProt O75676)	10 µM	< 50%
cAMP-dependent protein kinase catalytic subunit beta (PRKACB, Homo sapiens, UniProt P22694)	10 µM	< 50%
Serine/threonine-protein kinase RIO2 (RIOK2, Homo sapiens, UniProt Q9BVS4)	1 µM	< 50%
Serine/threonine-protein kinase RIO3 (RIOK3, Homo sapiens, UniProt O14730)	10 µM	< 50%

Study 2
Compound: O=C(Nc1cccnn1)N1CCC(=Cc2cccc(Oc3ccc(C(F)(F)F)cn3)c2)CC1
Effect on: cell-free assay
Technique: competition with immobilised ligand
Concentration: 1 µM
target	remaining binding
Protein-tyrosine kinase 6 (PTK6, Homo sapiens, UniProt Q13882)	100%
Calcium/calmodulin-dependent protein kinase type 1B (PNCK, Homo sapiens, UniProt Q6P2M8)	100%
Activin receptor type-2B (ACVR2B, Homo sapiens, UniProt Q13705)	98%
Phosphatidylinositol 4-phosphate 5-kinase type-1 alpha (PIP5K1A, Homo sapiens, UniProt Q99755)	100%
Serine/threonine-protein kinase LATS1 (LATS1, Homo sapiens, UniProt O95835)	100%
Serine/threonine-protein kinase PAK 5 (PAK5, Homo sapiens, UniProt Q9P286)	100%
Tyrosine-protein kinase receptor TYRO3 (TYRO3, Homo sapiens, UniProt Q06418)	100%
Cyclin-dependent kinase 9 (CDK9, Homo sapiens, UniProt P50750)	93%
Macrophage colony-stimulating factor 1 receptor (CSF1R, Homo sapiens, UniProt P07333)	95%
Cyclin-dependent kinase 4 (CDK4, Homo sapiens, UniProt P11802)	100%
SRSF protein kinase 3 (SRPK3, Homo sapiens, UniProt Q9UPE1)	81%
Protein-tyrosine kinase 2-beta (PTK2B, Homo sapiens, UniProt Q14289)	97%
Serine/threonine-protein kinase Sgk1 (SGK1, Homo sapiens, UniProt O00141)	100%
Receptor-type tyrosine-protein kinase FLT3 (FLT3, Homo sapiens, UniProt P36888, N841I)	69%
Megakaryocyte-associated tyrosine-protein kinase (MATK, Homo sapiens, UniProt P42679)	100%
Beta-adrenergic receptor kinase 1 (GRK2, Homo sapiens, UniProt P25098)	100%
Leucine-rich repeat serine/threonine-protein kinase 2 (LRRK2, Homo sapiens, UniProt Q5S007, G2019S)	100%
Mitotic checkpoint serine/threonine-protein kinase BUB1 (BUB1, Homo sapiens, UniProt O43683)	100%
Mitogen-activated protein kinase kinase kinase 7 (MAP3K7, Homo sapiens, UniProt O43318)	100%
Angiopoietin-1 receptor (TEK, Homo sapiens, UniProt Q02763)	94%
Phosphatidylinositol 4,5-bisphosphate 3-kinase catalytic subunit alpha isoform (PIK3CA, Homo sapiens, UniProt P42336, H1047L)	100%
Phosphatidylinositol 4-kinase beta (PI4KB, Homo sapiens, UniProt Q9UBF8)	100%
LIM domain kinase 1 (LIMK1, Homo sapiens, UniProt P53667)	88%
Ephrin type-A receptor 2 (EPHA2, Homo sapiens, UniProt P29317)	81%
Mitogen-activated protein kinase kinase kinase kinase 1 (MAP4K1, Homo sapiens, UniProt Q92918)	80%

Study 3
SMILES: O=C1Nc2ccc(Br)cc2/C1=C/c1cc2c([nH]1)CCCC2
Effect on: enzyme activity
Action: inhibitor
Concentration: 0.5 µM
Relative to: control
target	remaining activity
Dual specificity protein kinase CLK2 (CLK2, Homo sapiens, UniProt P49760)	88.6%
SRSF protein kinase 1 (SRPK1, Homo sapiens, UniProt Q96SB4)	98.3%
Protein kinase C zeta type (PRKCZ, Homo sapiens, UniProt Q05513)	104%
Ephrin type-A receptor 2 (EPHA2, Homo sapiens, UniProt P29317)	110%
Serine/threonine-protein kinase PAK 1 (PAK1, Homo sapiens, UniProt Q13153)	95.7%
Ribosomal protein S6 kinase alpha-3 (RPS6KA3, Homo sapiens, UniProt P51812)	80.9%
Calcium/calmodulin-dependent protein kinase type 1 (CAMK1, Homo sapiens, UniProt Q14012)	98.4%
Serine/threonine-protein kinase PAK 6 (PAK6, Homo sapiens, UniProt Q9NQU5)	89.8%
Dual specificity protein kinase CLK1 (CLK1, Homo sapiens, UniProt P49759)	97.2%
Vascular endothelial growth factor receptor 1 (FLT1, Homo sapiens, UniProt P17948)	73.4%
Ephrin type-A receptor 6 (EPHA6, Homo sapiens, UniProt Q9UF33)	89.2%
Tyrosine-protein kinase Tec (TEC, Homo sapiens, UniProt P42680)	129%
Cyclin-dependent kinase 2, with cyclin E (CDK2, Homo sapiens, UniProt P24941)	96%
Protein kinase C theta type (PRKCQ, Homo sapiens, UniProt Q04759)	98.4%
Muscle, skeletal receptor tyrosine-protein kinase (MUSK, Homo sapiens, UniProt O15146)	88.6%
Insulin-like growth factor 1 receptor (IGF1R, Homo sapiens, UniProt P08069)	74.3%
Casein kinase I isoform delta (CSNK1D, Homo sapiens, UniProt P48730)	72.4%
Casein kinase I isoform epsilon (CSNK1E, Homo sapiens, UniProt P49674)	84.3%
Mitogen-activated protein kinase kinase kinase 20 (MAP3K20, Homo sapiens, UniProt Q9NYL2)	87.7%
Tyrosine-protein kinase JAK1 (JAK1, Homo sapiens, UniProt P23458)	99.3%
Serine/threonine-protein kinase Sgk2 (SGK2, Homo sapiens, UniProt Q9HBY8)	101%
Serine/threonine-protein kinase SIK2 (SIK2, Homo sapiens, UniProt Q9H0K1)	92.7%
Calcium/calmodulin-dependent protein kinase kinase 1 (CAMKK1, Homo sapiens, UniProt Q8N5S9)	69.6%
Tyrosine-protein kinase receptor TYRO3 (TYRO3, Homo sapiens, UniProt Q06418)	104%

Study 4
Target: DNA polymerase theta, ATPase domain (POLQ, Homo sapiens, UniProt O75417)
UniProt O75417, sequence (whole entry, unmodified, looked up): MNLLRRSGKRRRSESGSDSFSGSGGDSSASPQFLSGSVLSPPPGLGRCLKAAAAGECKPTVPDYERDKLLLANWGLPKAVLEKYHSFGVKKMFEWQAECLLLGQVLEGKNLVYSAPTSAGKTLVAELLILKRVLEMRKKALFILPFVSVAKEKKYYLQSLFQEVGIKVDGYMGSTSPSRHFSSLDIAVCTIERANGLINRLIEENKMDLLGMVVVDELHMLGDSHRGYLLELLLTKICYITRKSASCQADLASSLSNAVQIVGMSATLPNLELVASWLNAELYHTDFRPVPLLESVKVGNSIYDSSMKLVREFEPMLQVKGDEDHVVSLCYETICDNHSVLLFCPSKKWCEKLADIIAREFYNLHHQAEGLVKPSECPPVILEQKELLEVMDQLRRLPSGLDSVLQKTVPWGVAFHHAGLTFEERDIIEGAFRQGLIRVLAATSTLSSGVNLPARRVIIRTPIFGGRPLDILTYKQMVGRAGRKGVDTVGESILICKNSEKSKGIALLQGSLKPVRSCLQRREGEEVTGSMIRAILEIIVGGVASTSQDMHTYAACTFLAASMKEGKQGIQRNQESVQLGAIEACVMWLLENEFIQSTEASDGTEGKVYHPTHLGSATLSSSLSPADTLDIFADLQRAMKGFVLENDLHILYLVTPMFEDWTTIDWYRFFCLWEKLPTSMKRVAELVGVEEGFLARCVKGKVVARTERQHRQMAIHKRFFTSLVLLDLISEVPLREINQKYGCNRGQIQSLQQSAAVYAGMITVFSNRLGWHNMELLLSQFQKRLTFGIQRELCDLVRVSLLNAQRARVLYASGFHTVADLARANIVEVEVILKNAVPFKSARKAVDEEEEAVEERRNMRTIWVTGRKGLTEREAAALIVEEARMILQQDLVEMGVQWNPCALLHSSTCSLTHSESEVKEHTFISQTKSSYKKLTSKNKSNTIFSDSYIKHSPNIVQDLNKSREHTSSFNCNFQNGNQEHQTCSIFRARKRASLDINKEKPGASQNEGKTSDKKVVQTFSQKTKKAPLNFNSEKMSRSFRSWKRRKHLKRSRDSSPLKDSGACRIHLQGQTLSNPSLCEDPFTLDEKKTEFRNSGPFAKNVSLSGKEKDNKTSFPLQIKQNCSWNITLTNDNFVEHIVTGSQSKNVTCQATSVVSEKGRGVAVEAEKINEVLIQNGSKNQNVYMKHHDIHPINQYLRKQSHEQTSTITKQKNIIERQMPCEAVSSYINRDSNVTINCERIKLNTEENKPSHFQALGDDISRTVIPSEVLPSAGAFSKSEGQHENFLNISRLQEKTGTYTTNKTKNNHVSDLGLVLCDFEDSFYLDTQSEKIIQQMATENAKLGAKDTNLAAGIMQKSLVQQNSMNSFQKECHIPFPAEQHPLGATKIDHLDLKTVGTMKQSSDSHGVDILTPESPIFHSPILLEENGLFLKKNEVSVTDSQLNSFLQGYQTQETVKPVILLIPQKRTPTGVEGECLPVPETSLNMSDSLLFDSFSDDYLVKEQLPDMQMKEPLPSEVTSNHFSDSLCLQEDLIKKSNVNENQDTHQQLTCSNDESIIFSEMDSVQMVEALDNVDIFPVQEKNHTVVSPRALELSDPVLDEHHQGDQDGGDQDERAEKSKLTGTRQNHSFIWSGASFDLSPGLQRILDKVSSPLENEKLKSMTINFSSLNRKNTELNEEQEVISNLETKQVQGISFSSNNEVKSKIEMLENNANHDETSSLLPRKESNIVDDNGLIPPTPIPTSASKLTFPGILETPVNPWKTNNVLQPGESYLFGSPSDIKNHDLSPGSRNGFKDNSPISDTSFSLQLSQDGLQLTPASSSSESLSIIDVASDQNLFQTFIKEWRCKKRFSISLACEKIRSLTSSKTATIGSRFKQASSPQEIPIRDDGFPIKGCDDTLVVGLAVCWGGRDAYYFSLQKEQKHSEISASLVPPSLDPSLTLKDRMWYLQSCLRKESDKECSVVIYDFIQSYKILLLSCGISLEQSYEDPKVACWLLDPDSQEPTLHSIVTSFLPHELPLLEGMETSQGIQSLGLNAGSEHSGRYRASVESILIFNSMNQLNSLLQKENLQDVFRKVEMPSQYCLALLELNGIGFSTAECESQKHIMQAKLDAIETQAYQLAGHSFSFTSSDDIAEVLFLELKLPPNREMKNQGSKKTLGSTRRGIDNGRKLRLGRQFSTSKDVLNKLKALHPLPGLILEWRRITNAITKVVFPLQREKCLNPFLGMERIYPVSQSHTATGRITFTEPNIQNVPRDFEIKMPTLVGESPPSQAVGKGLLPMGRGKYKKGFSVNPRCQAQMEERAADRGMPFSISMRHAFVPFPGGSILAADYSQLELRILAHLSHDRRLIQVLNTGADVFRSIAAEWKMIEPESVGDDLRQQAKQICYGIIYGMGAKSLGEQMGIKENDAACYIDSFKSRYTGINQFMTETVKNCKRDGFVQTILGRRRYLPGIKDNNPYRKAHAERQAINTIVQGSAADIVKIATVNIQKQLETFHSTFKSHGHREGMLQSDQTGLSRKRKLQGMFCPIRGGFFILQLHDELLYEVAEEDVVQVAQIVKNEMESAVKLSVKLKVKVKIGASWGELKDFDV
Effect on: enzyme activity
Action: inhibitor
Concentration: 77 µM
Relative to: untreated
Structure (SMILES)	remaining activity
CC(C)(C)NCC(O)COc1cccc2[nH]c(=O)[nH]c12 (stereo not shown)	101%
C[N+](C)(C)CCOC(=O)CCC(=O)OCC[N+](C)(C)C	97%
CCCCCCCCOc1ccccc1C(=O)Nc1ccc(C(=O)OCC[N+](C)(CC)CC)cc1	98.8%
O=C(NS(=O)(=O)c1ccc(Br)s1)c1ccc(Cl)cc1Cl	77.4%
CC(=O)NS(=O)(=O)c1ccc(N)cc1	100%
O=C(O)c1cccnc1	99.9% and 97.9%
COc1ccc(CNCc2cccc3ccccc23)cc1	105%
C=C1C(=O)O[C@@H]2[C@H]3O[C@]3(C)CC/C=C(\C)CC[C@@H]12	127%
CC(C)(C)c1nc(-c2cccc(NS(=O)(=O)c3c(F)cccc3F)c2F)c(-c2ccnc(N)n2)s1	97.2%
NC(=O)c1ccc(I)c([N+](=O)[O-])c1	104%
C[C@H](Nc1ncnc2nc[nH]c12)c1cc2cccc(Cl)c2c(=O)n1-c1ccccc1	110%
C[N+](C)(C)CC(O)CC(=O)[O-] (racemic)	83.6%
COCC(=O)Nc1c(I)c(C(=O)NCC(O)CO)c(I)c(C(=O)N(C)CC(O)CO)c1I (mixture of isomers)	91.3%

Some of these lines once more (study 4):
Structure (SMILES)	remaining activity
O=C(NS(=O)(=O)c1ccc(Br)s1)c1ccc(Cl)cc1Cl	77.4%
CC(=O)NS(=O)(=O)c1ccc(N)cc1	100%
O=C(O)c1cccnc1	99.9% and 97.9%
COc1ccc(CNCc2cccc3ccccc23)cc1	105%
C=C1C(=O)O[C@@H]2[C@H]3O[C@]3(C)CC/C=C(\C)CC[C@@H]12	127%
CC(C)(C)c1nc(-c2cccc(NS(=O)(=O)c3c(F)cccc3F)c2F)c(-c2ccnc(N)n2)s1	97.2%
NC(=O)c1ccc(I)c([N+](=O)[O-])c1	104%
C[C@H](Nc1ncnc2nc[nH]c12)c1cc2cccc(Cl)c2c(=O)n1-c1ccccc1	110%
C[N+](C)(C)CC(O)CC(=O)[O-] (racemic)	83.6%
